# Results of several laboratories.
# Each numbered part is a random draw from the data of one study; scales do not carry over between parts.

# Block 1 — method: protein-binding microarray; form: double-stranded DNA, one strand shown; matrix: in vitro; concentration: 250 nM; notes: 60-bp whole probe; together with: salmon DNA 0.4 mg/ml; relative to: random background probes; direction: higher = stronger binding; shared flanks, not repeated: GCCTAGCAC … GTCTTGATTCGCTTGACGCTGCTG
# Target: Interferon regulatory factor 5, full length, phosphomimetic (IRF5, Homo sapiens, UniProt Q13568-2, residues 1-514, K96S/S451D/S453D/S456D/S462D)
Oligonucleotide,log fluorescence [z-score]
TTAGATATCAGTCTAGATTAGTGCTAG,1.43
GACGTTTTCGGGTTTCGGGACGTGCTA,6.38
GACGGTTTCGGCATCGGGACGTGCTAG,5.91
GACGAACTCAGTTTCGAGACGTGCTAG,5.42
GACGTTTTCAGTATCGAGACGTGCTAG,4.6
CTCATTTTCGTTTTGTGTCTGTGCTAG,7.01
TCAGTTTTCAGTTTCACACTGTGCTAG,5.1
TGAGCACCCAGAGCCGCCTGGTGCTAG,-0.387
TCATCTTTCCAACTCTGACTGTGCTAG,0.425
GACGATATCGGGACTGGAGAGGTGCTA,0.831
GACGATCTCAGTTTAGAGACGTGCTAG,-0.21
TCAAATGATTGGTTGAAACTGTGCTAG,0.468
GACGAACTGAGTACCGAGACGTGCTAG,-0.306
TTAGAACTGTGTATCGATTAGTGCTAG,3.91
ATCCCGCCTGCCCCACAGAAGTGCTAG,-0.39
TTAGGTTTCGGGACTGTGTTAGTGCTA,6.16
TTAGATCTCAGTCTCGATTGGTGCTAG,0.609
GCTGTTCTCAGACTGGGTGCGTGCTAG,-0.295
TCACCTCTACCTCCTGGGACTGTGCTA,-0.14
TCCATTTTCTGAATGCTACTGTGCTAG,1.25
TTAGAACTGAGTATCGGTTAGTGCTAG,7.01

# Block 2 — method: competition protein-binding microarray; form: double-stranded DNA, one strand shown; matrix: in vitro; concentration: 2 µM; together with: Pho4 competitor, 0.05 µM; direction: higher = stronger binding
# Target: Centromere-binding protein 1, full length, His-tagged (CBF1, Saccharomyces cerevisiae, UniProt P17106, residues 1-351)
# Sequence of UniProt P17106 (whole entry, looked up): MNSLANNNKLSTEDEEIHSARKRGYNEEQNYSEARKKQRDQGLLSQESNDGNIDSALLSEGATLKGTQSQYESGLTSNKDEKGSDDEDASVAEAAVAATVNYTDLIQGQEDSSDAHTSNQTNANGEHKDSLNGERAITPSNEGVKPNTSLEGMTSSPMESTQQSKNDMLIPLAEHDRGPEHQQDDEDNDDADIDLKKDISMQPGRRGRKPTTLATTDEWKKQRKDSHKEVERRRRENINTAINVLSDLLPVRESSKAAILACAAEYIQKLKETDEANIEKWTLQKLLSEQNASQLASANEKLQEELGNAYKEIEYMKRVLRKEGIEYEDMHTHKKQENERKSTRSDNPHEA
# Notes: whole 60-bp probe, lowest competitor level
Oligonucleotide,fluorescence intensity
ACACAAAATTGTGGAACCGTGACAAGCAATGGCTGAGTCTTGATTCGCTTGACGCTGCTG,131 a.u.
CTAACGAAGGTTTGGACAGTGGGTGACAAGCCAAGTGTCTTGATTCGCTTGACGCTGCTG,61.8 a.u.
CTTCTGTAAATTTCTCACGTGTTTTGACGCGCCCCGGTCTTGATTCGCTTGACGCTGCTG,1230 a.u.
ATACCAGCACCAGACAACATGGCTCGGTAACCACCAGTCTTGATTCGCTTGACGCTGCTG,61.7 a.u.
TGCGCAACAACTTGGCGAGTGGGTGTATGTCTAGAAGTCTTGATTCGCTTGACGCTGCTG,56.9 a.u.
GTCGGCGGCGCAGCTCACGTGACCGCGCTCTGGGCCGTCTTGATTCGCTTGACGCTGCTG,8500 a.u.
CGGGGTTAAGTTTGTTTCGTGGGTGGCTTGCAGCAGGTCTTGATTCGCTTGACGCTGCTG,75.2 a.u.
GCGGCTAAATTTAAGGGCGTGATGGCAGAACTCGGCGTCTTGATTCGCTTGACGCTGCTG,122 a.u.
CGTATTGGTAACCATCACGTGCCGAGCAGTAGACCTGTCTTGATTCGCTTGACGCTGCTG,4390 a.u.
ACCTATATGAATTCTCATGTGTCTCGTCTGATGTTCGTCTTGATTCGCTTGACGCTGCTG,88.3 a.u.
CTAGACCAGTAGCAACACATGGACCGATAACACCAGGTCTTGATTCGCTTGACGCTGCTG,72 a.u.
CCTGCTGGCCTGTACGACGTGCAAACATTCCATCGCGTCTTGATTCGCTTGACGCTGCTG,67.6 a.u.
CTTTCCCGATCTTGACTAGTGGGTGTAGCACATTTGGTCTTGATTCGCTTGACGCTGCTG,62.7 a.u.
TCTCGAATAGACGGCCACGTGATGGCTAACATTAATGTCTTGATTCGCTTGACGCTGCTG,3900 a.u.
TACCGATGATGTTGTCATGATGGACAGTGATGAGGGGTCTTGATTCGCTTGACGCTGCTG,80.9 a.u.
ACCTAGGACTACCAACACATGCAAGGATGCCAGTCTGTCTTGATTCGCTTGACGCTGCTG,69.4 a.u.
TGCGCAACAACTTGAGCCGTGGGTGTATGTCTAGAAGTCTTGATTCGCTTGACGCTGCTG,49.6 a.u.
CTTTCCCGATCTTGACTCGTGGGTGTAGCACATTTGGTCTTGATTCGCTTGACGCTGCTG,76.1 a.u.

# Block 3 — method: protein binding microarray; form: double-stranded DNA, one strand shown; matrix: in vitro; concentration: not given; relative to: not given; direction: higher = stronger binding
# Target: Histone acetyltransferase KAT6A, winged helix 1, GST fusion (KAT6A, Homo sapiens, UniProt Q92794, residues 1-85)
# Notes: 8-mer, flanks averaged, mean of 2 arrays, mostly near background
# Construct (chain): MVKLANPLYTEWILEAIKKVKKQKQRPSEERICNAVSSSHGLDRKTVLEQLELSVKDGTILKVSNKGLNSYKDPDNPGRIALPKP
Oligonucleotide,E-score
CCGTTCGC,0.272
ACCCCGCA,0.267
CGAGTTAG,-0.062
AACAAACC,-0.0173
GAGGCGAC,0.00709
CGATGGGC,-0.0323
AAAGCGCC,0.317
ACAGCGGC,0.305
TCCTTTAA,-0.141
ACTGATTA,-0.161
GCATATGC,0.0624
GATGCTAC,0.0237
AGGTAGAT,-0.0902
CCACGGAC,0.177
CTCTCGCC,-0.0515
AATGTAGA,-0.15
ACAATTGT,-0.126
CCTCGTTC,-0.0709
GGTAACGA,-0.0314
ACACGTAG,-0.144
GAAATTAA,-0.101
GCATCAAC,0.0878

# Block 4 — method: RNA Bind-n-Seq; form: RNA; matrix: in vitro; concentration: 200 nM; notes: whole 134-nt RNA, ends assumed; together with: 150 mM KCl; relative to: input library; direction: higher = stronger binding
# Target: Ras GTPase-activating protein-binding protein 1, full length (G3BP1, Homo sapiens, UniProt Q13283)
# Sequence of UniProt Q13283 (whole entry, looked up): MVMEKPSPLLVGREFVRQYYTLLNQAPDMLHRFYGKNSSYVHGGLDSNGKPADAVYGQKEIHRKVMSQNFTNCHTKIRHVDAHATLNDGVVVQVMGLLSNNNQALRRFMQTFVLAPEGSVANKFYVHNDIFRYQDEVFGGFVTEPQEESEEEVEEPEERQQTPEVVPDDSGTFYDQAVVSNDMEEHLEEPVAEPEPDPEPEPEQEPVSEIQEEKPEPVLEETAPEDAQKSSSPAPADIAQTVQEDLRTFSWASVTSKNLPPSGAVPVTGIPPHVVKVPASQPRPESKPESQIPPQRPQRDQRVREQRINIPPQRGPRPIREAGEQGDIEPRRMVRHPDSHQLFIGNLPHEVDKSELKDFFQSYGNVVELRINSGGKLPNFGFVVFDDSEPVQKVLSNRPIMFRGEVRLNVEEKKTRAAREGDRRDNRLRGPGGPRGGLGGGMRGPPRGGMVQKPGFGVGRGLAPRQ
Oligonucleotide,log2 enrichment
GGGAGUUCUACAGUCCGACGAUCUGGCCGUGGUGGCAUGCGGGGAGGAAGAGGUGGCCUCAUGGAUCGUGGUGGUCCCGGUGGAAUGUUCAGAGGUGGCCGUGGUGGAGACAGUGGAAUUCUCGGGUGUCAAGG,0.51
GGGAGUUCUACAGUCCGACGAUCUGGCCCUGGUGGCAUGCGGGGAGGAAGAGGUGGCCUCAUGGAUCGUGGUGGUCCCGGUGGAAUGUUCAGAGGUGGCUGUGGUGGAGACAGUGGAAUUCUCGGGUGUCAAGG,0.545
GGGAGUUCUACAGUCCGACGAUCUGGGAGGUGGAUUUUGUUUAUUUUUUUAGCUCAUUUCCAGGGGUGGGAAGUUUUUUUUAAUAUGUGUCAUGAAUAAAGUUGUUUUUGAAAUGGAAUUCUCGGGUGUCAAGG,0.335
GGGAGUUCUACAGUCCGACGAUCUCCUGUGCUACACAUCGUAUGUACCGAAUCGGGGAGGGGAAAAAAAGGGGAAAAAGGGGAAAGUAUUAUGUUACGCCGUUCGGAUCUGCAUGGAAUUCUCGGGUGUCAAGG,0.484
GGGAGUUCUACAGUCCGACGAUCUCAAGUCCUGUGCUACACAUCGUAUGUACCGAAUCGGGUGGGUUUGGGAAAGGGAAAGUAUUAUGUUACGCCGUUCGGAUCUGCACUUCCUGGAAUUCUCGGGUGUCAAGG,0.975
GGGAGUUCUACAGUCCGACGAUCUCAAGUCCUGUGCUACACAUCGUAUGUACCGAAUCGGGUUUGGGUUUGGGUGGGAAAGUAUUAUGUUACGCCGUUCGGAUCUGCACUUCCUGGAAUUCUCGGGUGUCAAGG,0.99
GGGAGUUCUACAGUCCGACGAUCAGUCCUGUGCUACACAUCGUAUGUACCGAAUCGGGAGGGUUUUUUUGGGUUUUUGGGAAAGUAUUAUGUUACGCCGUUCGGAUCUGCACUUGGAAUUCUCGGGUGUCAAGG,-0.393
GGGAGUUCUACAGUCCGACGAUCUUUUACUUCUCCGCCAGGUGCUGUGCUCCAUCAUCGCCGGUACCUUGCACUAUCUCUACCUGGCCACCUUGACCUGGAUGCUGCUGGAGGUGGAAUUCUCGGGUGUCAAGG,0.0799
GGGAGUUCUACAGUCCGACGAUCGUCCUGUGCUACACAUCGUAUGUACCGAAUCGGGCCCCCCGGCCCCCCGGCCCCCCGGAAAGUAUUAUGUUACGCCGUUCGGAUCUGCACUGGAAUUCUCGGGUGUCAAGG,-0.0686
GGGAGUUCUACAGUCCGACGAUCGGGGGUGACCGCCGGAGCGCGGCGUGAGCCCUCCCCCUUGGGAUCCCGCAGCUGACCAGUCGCGCUGACGGACAGACAGACAGACACCGCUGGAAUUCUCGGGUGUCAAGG,-0.555
